Published values pooled from the literature.
Compare with care: the assays were run in different laboratories.
Organism: Saccharomyces cerevisiae

The glucose uptake of `CC1=NNC(=O)C1=NNc1ccc(S(N)(=O)=O)cc1` is reported as 60.9% (500 µg/mL).
With `O=C(O)P(=O)(O)O` the IC50 was 140 µM (cell growth, OD600 after 22 h; PfPiT-expressing strain; pH 4.3, 30 °C, added: 12 mM NaH2PO4).
For `NC1=CC2=NCCc3c[nH]c(c32)C1=O`, the inhibition was 100% (cell growth, liquid culture; BY4741; 100 µM, 24 h).
The glucose uptake of `CC1=NN(c2ccccc2)C(=O)C1=NNc1ccc(S(N)(=O)=O)cc1` is reported as 25.7% (100 µg/mL).
`CO[C@H]1[C@H](O[C@H]([C@H]2O[C@@H](n3ccc(=O)[nH]c3=O)[C@H](O)[C@@H]2O)[C@H](NCCCNC(=O)[C@@H](NC(=O)[C@@H](NC(=O)N[C@H](C(=O)O)C(C)C)[C@@H]2CCN=C(N)N2)[C@@H](O)C(C)C)C(=O)O)O[C@H](CN)[C@H]1O` gave an MIC50 of > 35 µg/mL (alamar blue; BY4742).
With `O=C1C(NCCc2c[nH]c3ccccc23)=CC2=NCCc3c[nH]c1c32` the inhibition was 63% (cell growth, liquid culture; BY4741; 100 µM, 24 h).
For `C[S+](C)[O-]`, the growth reduction was ~11% (OD600; PfPiT-expressing strain; 1 %, 22 h; reference: untreated strain).
With `COC1=CC2=[N+](C)CCc3c[nH]c(c32)C1=O` the inhibition was 4.2% (cell growth, liquid culture; BY4741; 100 µM, 24 h).
`CC1=NNC(=S)NC(=O)C1/N=N/c1ccc(S(N)(=O)=O)cc1` (centres unmarked) gave a glucose uptake of 81.6% (500 µg/mL).
The MIC of `O=C1/C(=C/c2cc(O)c(O)c(O)c2)Oc2cccc(O)c21` is reported as > 128 µg/mL (YPD medium; 30 °C).
The IC50 of `CCN(CCCS(=O)(=O)O)c1cccc(C)c1` is reported as > 75000 µM (cell growth, OD600 after 16 h; parental strain (Pho84); 16 h, pH 4.3, 30 °C, added: 12 mM NaH2PO4).

Repeated from above:
With `O=C(O)P(=O)(O)O` the IC50 was 140 µM (cell growth, OD600 after 22 h; PfPiT-expressing strain; pH 4.3, 30 °C, added: 12 mM NaH2PO4).
